{"data": "Measured values gathered from unrelated publications", "note": "Compare with care: the assays were run in different laboratories. ± marks the error that the study gave."}
{"SMILES": "CN1Cc2cc(Cl)ccc2-n2c(nnc2C2CCN(c3cccc([18F])n3)CC2)C1", "test system": "C57BL/6 mouse male, blood", "setting": "intravenous, dose not given, 30 min, together with: blocking agent 10 mg/kg", "tissue uptake": "3.01 ± 0.8 %ID/g"}
{"SMILES": "CSCC[C@H](NC(=O)CNC(=O)[C@H](CCCCN)NC(=O)[C@H](CC(C)C)NC(=O)[C@@H]1CCCN1C(=O)[C@H](CO)NC(=O)[C@H](Cc1c[nH]cn1)NC(=O)[C@H](Cc1c[nH]c2ccccc12)NC(=O)[C@H](CCCNC(=N)N)NC(=O)[C@H](CC(C)C)NC(=O)[C@H](CCCNC(=N)N)NC(=O)[C@H](Cc1c[nH]c2ccccc12)NC(=O)[C@H](CS)NC(=O)CCCCCNC(=O)CN1CCN(CC(=O)O)CCN(CC(=O)O)CCN(CC(=O)O)CC1)C(=O)O [copper-64 labelled]", "test": "ex vivo biodistribution", "test system": "BALB/c nude mice, muscle", "setting": "intravenous, dose not given, 1 h, Huh-7 tumour-bearing", "tissue uptake": "0.58 %ID/g"}
{"SMILES": "CC[C@H](C)[C@H](NC(=O)[C@H](CCCNC(=N)N)NC(=O)[C@H](CCCCN)NC(=O)[C@H](Cc1ccc(O)cc1)NC(=O)[C@H](CC(=O)O)NC(=O)[C@H](C)NC(=O)CNC(=O)CCOCCOCCOCCNC(=O)CN1CCN(CC(=O)O)CCN(CC(=O)O)CCN(CC(=O)O)CC1)C(=O)N[C@H](C(=O)N[C@@H](CC(C)C)C(=O)N[C@@H](CCCCN)C(=O)N[C@H](C(=O)N[C@@H](CC(N)=O)C(N)=O)C(C)C)[C@@H](C)O [copper-64 labelled]", "test": "ex vivo gamma counting", "test system": "C57BL/6J male mice, B16-F10 tumour, stomach", "setting": "intravenous, 1.85 MBq, 100 min", "tissue uptake": "1.64 ± 0.482 %ID/g"}
{"SMILES": "O=C([O-])CNC(=O)CN1CCN(CC(=O)NCC(=O)[O-])CCN(CC(=O)NCC(=O)[O-])CCN(CC(=O)NCC(=O)[O-])CC1.[177Lu+3]", "test system": "Sprague-Dawley rat, pancreas", "setting": "intravenous (tail vein), dose not given, 2 h", "tissue uptake": "0.011 % injected dose/g"}
{"SMILES": "CCCC[C@H]1C(=O)N(C)[C@@H](CCCC)C(=O)N[C@@H](CCCNC(=O)CN2CCN(CC(=O)O)CCN(CC(=O)O)CCN(CC(=O)O)CC2)C(=O)N[C@H](C(=O)NCC(N)=O)CSCC(=O)N[C@@H](Cc2ccc(O)cc2)C(=O)N(C)[C@@H](C)C(=O)N[C@@H](CC(N)=O)C(=O)N2CCC[C@H]2C(=O)N[C@@H](Cc2c[nH]cn2)C(=O)N[C@@H](CC(C)C)C(=O)N(C)CC(=O)N[C@@H](Cc2c[nH]c3ccccc23)C(=O)N[C@@H](CO)C(=O)N[C@@H](Cc2c[nH]c3ccccc23)C(=O)N1C [gallium-68 labelled]", "test system": "NOD/SCID mice, CHO-hPD-L1 xenograft, stomach", "setting": "60 min, together with: blocking agent 50 µg co-injected", "tissue uptake": "4.9 ± 1.14 %ID/g"}
{"SMILES": "CC[C@H](C)[C@H](NC(=O)[C@H](CCCCN)NC(=O)CNC(=O)[C@H](CC(C)C)NC(=O)[C@H](Cc1ccccc1)NC(=O)[C@H](CCCCN)NC(=O)[C@H](CO)NC(=O)[C@H](Cc1ccccc1)NC(=O)[C@H](Cc1c[nH]c2ccccc12)NC(=O)[C@H](CCC(N)=O)NC(=O)[C@@H](NC(=O)[C@H](Cc1ccccc1)NC(=O)CCCCCNC(=O)CN1CCN(CC(=O)O)CCN(CC(=O)O)CCN(CC(=O)O)CC1)C(C)C)C(=O)N[C@@H](CCC(=O)O)C(=O)N1CCC[C@H]1C(=O)N[C@H](CC(=O)O)C(=O)N[C@H](C(=O)N[C@@H](CO)C(=O)N[C@@H](CCC(N)=O)C(=O)N[C@H](C(=O)N[C@@H](CCC(N)=O)C(=O)N[C@@H](CC(=O)O)C(=O)N1CCC[C@H]1C(=O)N[C@@H](CC(N)=O)C(=O)N[C@@H](CC(=O)O)C(=O)N[C@@H](CCC(N)=O)C(=O)N[C@@H](Cc1ccc(O)cc1)C(=O)N[C@@H](CCC(=O)O)C(=O)N1CCC[C@H]1C(=O)N[C@@H](Cc1ccccc1)C(=O)O)C(C)C)C(C)C [copper-64 labelled]", "test system": "C57BL/6 mice, male, MC-38 tumour-bearing, tumor", "setting": "2 h, vehicle-treated", "tissue uptake": "2.09 ± 0.2 %ID/g"}
{"SMILES": "CC[C@H](C)[C@H](NC(=O)[C@H](CCCNC(=N)N)NC(=O)[C@H](CCCCN)NC(=O)[C@H](Cc1ccc(O)cc1)NC(=O)[C@H](CC(=O)O)NC(=O)[C@H](C)NC(=O)CNC(=O)CCOCCOCCOCCNC(=O)CN1CCN(CC(=O)O)CCN(CC(=O)O)CCN(CC(=O)O)CC1)C(=O)N[C@H](C(=O)N[C@H](C(=O)N[C@@H](CCCCN)C(=O)N[C@H](C(=O)N[C@@H](CC(N)=O)C(N)=O)C(C)C)C(C)C)[C@@H](C)O [copper-64 labelled]", "test": "ex vivo gamma counting", "test system": "C57BL/6J male mice, B16-F10 tumour, pancreas", "setting": "intravenous, 1.85 MBq, 20 min", "tissue uptake": "0.799 ± 0.068 %ID/g"}
{"SMILES": "CC(C)C[C@@H](NC(=O)[C@@H](CCCNC(=N)N)NC(=O)[C@@H](Cc1c[nH]cn1)NC(=O)[C@@H](Cc1c[nH]c2ccccc12)NC(=O)[C@@H](Cc1c[nH]cn1)NC(=O)[C@@H](Cc1ccccc1)NC(=O)[C@H](NC(=O)[C@@H](Cc1ccc(O)cc1)NC(=O)CNC(=O)CNC(=O)CCOCCOCCOCCNC(=O)CN1CCN(CC(=O)O)CCN(CC(=O)O)CC1)[C@H](C)O)C(=O)N[C@H](CC(N)=O)C(=O)N1CCC[C@@H]1C(=O)O [gallium-68 labelled]", "test system": "C57BL/6 mice, male, bone", "setting": "intravenous, 1.85 MBq, 60 min, together with: blocking antibody", "tissue uptake": "0.91 ± 0.31 %ID/g"}
{"SMILES": "C[C@H](O)[C@@H](NC(=O)[C@H]1CCCN1C(=O)[C@@H](CCCCN)NC(=O)[C@@H](CO)NC(=O)[C@@H](Cc1ccc(O)cc1)NC(=O)[C@@H](CC(N)=O)NC(=O)CCOCCOCCOCCNC(=O)CN1CCN(CC(=O)O)CCN(CC(=O)O)CCN(CC(=O)O)CC1)C(=O)N[C@H](CC(=O)O)C(=O)N[C@H](CCCNC(=N)N)C(=O)N[C@H](CCC(N)=O)C(=O)N[C@H](Cc1ccc(O)cc1)C(=O)N[C@H](Cc1c[nH]cn1)C(=O)N[C@H](Cc1ccccc1)C(N)=O [copper-64 labelled]", "test system": "C57BL/6J mice, brain", "setting": "intravenous, 1.85 MBq, 1.333 h, radiolabelled", "tissue uptake": "0.02 %ID/g"}
{"SMILES": "Cc1ccccc1-c1ccc(-c2nc(-c3ccc(CN(C)CCCC(=O)O)c([18F])c3)no2)cc1C(F)(F)F", "test system": "Sprague Dawley rats, male, fat", "setting": "5 min", "tissue uptake": "0.09 ± 0.01 %ID/g"}
{"note": "Some of these lines once more:"}
{"SMILES": "CC[C@H](C)[C@H](NC(=O)[C@H](CCCNC(=N)N)NC(=O)[C@H](CCCCN)NC(=O)[C@H](Cc1ccc(O)cc1)NC(=O)[C@H](CC(=O)O)NC(=O)[C@H](C)NC(=O)CNC(=O)CCOCCOCCOCCNC(=O)CN1CCN(CC(=O)O)CCN(CC(=O)O)CCN(CC(=O)O)CC1)C(=O)N[C@H](C(=O)N[C@H](C(=O)N[C@@H](CCCCN)C(=O)N[C@H](C(=O)N[C@@H](CC(N)=O)C(N)=O)C(C)C)C(C)C)[C@@H](C)O [copper-64 labelled]", "test": "ex vivo gamma counting", "test system": "C57BL/6J male mice, B16-F10 tumour, pancreas", "setting": "intravenous, 1.85 MBq, 20 min", "tissue uptake": "0.799 ± 0.068 %ID/g"}
